Measurements of several laboratories.
Numbered parts are unrelated; each lists some results of a single study. Substitutions count along the parent as printed.

Block 1
Target: Centromere-binding protein 1, full length, His-tagged (CBF1, Saccharomyces cerevisiae, UniProt P17106, residues 1-351)
Chain of UniProt P17106 (whole entry, looked up): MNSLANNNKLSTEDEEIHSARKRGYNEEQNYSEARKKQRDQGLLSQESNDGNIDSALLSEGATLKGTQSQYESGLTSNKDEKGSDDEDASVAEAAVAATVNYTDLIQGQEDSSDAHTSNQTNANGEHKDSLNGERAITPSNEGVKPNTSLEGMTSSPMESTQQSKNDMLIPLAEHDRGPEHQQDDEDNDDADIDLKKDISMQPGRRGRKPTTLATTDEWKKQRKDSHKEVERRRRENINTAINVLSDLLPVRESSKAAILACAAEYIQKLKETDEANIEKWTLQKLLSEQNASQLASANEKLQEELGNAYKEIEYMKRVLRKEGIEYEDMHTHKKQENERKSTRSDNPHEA
Technique: competition protein-binding microarray
Form: double-stranded DNA, one strand shown
Matrix: in vitro
Concentration: 2 µM
Notes: whole 60-bp probe, lowest competitor level
With: Pho4 competitor, 0.05 µM
Reading: higher = stronger binding
Quantity: fluorescence intensity
ATCTTGGGGATTACCCACGTGCTGTAACAAACGGTTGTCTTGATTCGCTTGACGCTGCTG: 1540 a.u.
GATTTTGTTCTTTGTCATGTGATTTTAATCTGTCAAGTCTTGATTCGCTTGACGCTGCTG: 2290 a.u.
AAACTAATGGATTGGCGCGTGTACTATATATATTCAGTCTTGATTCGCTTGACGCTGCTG: 113 a.u.
CATACCCAACCTTTTCACGTGGGATAAGATATTTGTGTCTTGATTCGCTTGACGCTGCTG: 866 a.u.
CGGGGTTAAGTTTGTCACGCAACTTGCTTGCAGCAGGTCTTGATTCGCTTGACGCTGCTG: 111 a.u.
CTTTCCCGATCTTGATAAGTGGGTGTAGCACATTTGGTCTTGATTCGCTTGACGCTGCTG: 76.3 a.u.
GCTTGTTTTCTCCGTCACGGGTTTAGACCTTGGTGGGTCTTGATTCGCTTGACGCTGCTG: 527 a.u.
TGCGCAACAACTTGCGATGTGGGTGTATGTCTAGAAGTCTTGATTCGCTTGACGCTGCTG: 61.7 a.u.
AAAACCCTAACAATACACATGATGCAACTGGAACGCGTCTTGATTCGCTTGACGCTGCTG: 173 a.u.
ATGAGAAGCGCAAATGTCGTGATGGCAATAGCCCGGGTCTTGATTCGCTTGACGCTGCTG: 98.4 a.u.
CTTGAATAGTCATCGCACGATTCTGGAGTGTAAGCAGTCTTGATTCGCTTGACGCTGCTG: 72.9 a.u.
CATACCCAACCTTTTCACGTGGACTAAGATATTTGTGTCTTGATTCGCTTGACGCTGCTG: 1010 a.u.
CGTCCTAGTGATTGGATAGTGGGTGCCATGAGGAAGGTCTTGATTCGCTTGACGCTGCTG: 70.7 a.u.
AAAGCGGTAATTTGTTACGTGGGTGCAGATATCTATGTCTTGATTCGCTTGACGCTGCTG: 80.1 a.u.
GTCTTGTCTCATTGCACAGTGGGTGTCCCCACTTCAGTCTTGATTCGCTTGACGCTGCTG: 88.8 a.u.
AAATTACTAAGTTGGCCCGTGGGTGACGCCGTATGAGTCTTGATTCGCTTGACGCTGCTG: 54.7 a.u.
TCGATGACAATTTTACACATGAAAAACGAACTATGTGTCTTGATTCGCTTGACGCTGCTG: 97.2 a.u.
CGTCCTAGTGATTGGATGGTGGGTGCCATGAGGAAGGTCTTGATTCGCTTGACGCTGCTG: 83.2 a.u.

Block 2
Target: OGT, full length, His-tagged (human)
Technique: phage display, sequencing
Matrix: in vitro
Concentration: 1 µg OGT
Notes: single substitutions, 15-mer displayed peptide, unchanged parent 16.7
Baseline: input library
Reading: higher = stronger binding
Quantity: fold enrichment
Parent: peptide; NSEYMPQYQIIFAHQ
Y8K: 0.56 fold
E3S: 17.1 fold
H14I: 11.3 fold
Q9N: 1.57 fold
Y4I: 2.19 fold
M5R: 9.3 fold
Y4G: 0.509 fold
I11G: 2.47 fold
I11D: 7.62 fold
Y4H: 2.32 fold
E3A: 19.5 fold
E3G: 12.9 fold
I10D: 0.526 fold
Q15A: 9.81 fold
M5E: 4.93 fold
H14G: 21.9 fold
H14E: 7.25 fold

Block 3
Target: ABI1, truncated, D143A, DHFR fusion (Arabidopsis thaliana, UniProt P49597)
Technique: DHFR PCA, dose-response
Matrix: yeast
Notes: Hill fit, mean, not affinity
With: (+)-ABA, dose series
Reading: lower = more sensitive
Quantity: ABA EC50
Parent: PYL1, truncated, DHFR fusion (Arabidopsis thaliana, UniProt Q8VZS8); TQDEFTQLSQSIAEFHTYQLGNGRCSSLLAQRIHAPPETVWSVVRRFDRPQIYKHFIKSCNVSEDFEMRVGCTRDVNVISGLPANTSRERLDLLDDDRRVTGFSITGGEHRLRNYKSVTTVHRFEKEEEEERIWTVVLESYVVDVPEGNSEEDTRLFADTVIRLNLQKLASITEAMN
E139G: 546 µM
Q7R: 3.13 µM
Q10S: 1.32 µM
A158V: 0.196 µM
A13M: 3.03 µM
N77D: 3.34 µM
E4S: 3.21 µM
R32A: 3.23 µM
S104L: 347 µM
R90A: 43.9 µM
T6Y: 10.8 µM
A30F: 1.91 µM
V142K: 14.6 µM
G102K: 72.2 µM
Y18V: 9 µM
T73K: 5.63 µM
L94V: 44.3 µM
L8Y: 4.1 µM
I79K: 6.28 µM
V100T: 25 µM
L169C: 260 µM

Block 4
Target: Sal-like protein 4, full length isoform B (SALL4, Homo sapiens, UniProt Q9UJQ4-2, residues 1-616)
Technique: universal PBM
Form: double-stranded DNA, one strand shown
Matrix: in vitro
Concentration: not given
Notes: 8-mer, flanks averaged, mean of replicates
Reading: higher = stronger binding
Quantity: E-score
Construct (chain): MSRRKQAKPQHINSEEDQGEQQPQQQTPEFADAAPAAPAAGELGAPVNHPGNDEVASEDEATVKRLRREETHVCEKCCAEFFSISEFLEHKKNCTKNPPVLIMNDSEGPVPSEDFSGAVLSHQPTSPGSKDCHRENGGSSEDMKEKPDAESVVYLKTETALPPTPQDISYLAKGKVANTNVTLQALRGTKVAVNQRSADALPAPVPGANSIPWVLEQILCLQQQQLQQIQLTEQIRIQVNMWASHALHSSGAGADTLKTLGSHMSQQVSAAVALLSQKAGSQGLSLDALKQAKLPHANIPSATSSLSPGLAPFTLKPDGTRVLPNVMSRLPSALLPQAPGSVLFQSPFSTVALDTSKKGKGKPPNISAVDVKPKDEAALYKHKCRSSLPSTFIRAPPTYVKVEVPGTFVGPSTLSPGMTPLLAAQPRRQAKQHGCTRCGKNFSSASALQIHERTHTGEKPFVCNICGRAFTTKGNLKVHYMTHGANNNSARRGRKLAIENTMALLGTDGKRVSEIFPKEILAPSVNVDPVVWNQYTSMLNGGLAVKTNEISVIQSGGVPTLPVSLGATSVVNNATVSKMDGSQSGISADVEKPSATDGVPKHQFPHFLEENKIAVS
CTGAAAAC: 0.175
CCGAAAAC: -0.0929
CCCGTTTC: -0.147
TAACAAGA: 0.173
AGTCGAGG: -0.244
TGGTTAAA: 0.223
CAACCTTC: -0.0337
GACTTTCC: -0.0924
AGCCGATA: 0.00252
CGTATGAA: 0.177
AAATCTCC: -0.186
CTTGACGA: -0.176
TGATGACA: -0.0614
TGACCTAA: 0.0829
ATCGGACG: -0.11
GTTGGGAA: -0.121
CAAAGTAC: 0.0676
GGGCTGTA: -0.203
GGAAGTTA: 0.149
AGCATTTG: 0.0728

Block 5
Target: Interferon regulatory factor 3, full length, phosphomimetic (IRF3, Homo sapiens, UniProt Q14653, residues 1-427, S386D/S396D/S398D/S402D/T404D/S405D)
Chain of UniProt Q14653 (whole entry, unmodified, looked up): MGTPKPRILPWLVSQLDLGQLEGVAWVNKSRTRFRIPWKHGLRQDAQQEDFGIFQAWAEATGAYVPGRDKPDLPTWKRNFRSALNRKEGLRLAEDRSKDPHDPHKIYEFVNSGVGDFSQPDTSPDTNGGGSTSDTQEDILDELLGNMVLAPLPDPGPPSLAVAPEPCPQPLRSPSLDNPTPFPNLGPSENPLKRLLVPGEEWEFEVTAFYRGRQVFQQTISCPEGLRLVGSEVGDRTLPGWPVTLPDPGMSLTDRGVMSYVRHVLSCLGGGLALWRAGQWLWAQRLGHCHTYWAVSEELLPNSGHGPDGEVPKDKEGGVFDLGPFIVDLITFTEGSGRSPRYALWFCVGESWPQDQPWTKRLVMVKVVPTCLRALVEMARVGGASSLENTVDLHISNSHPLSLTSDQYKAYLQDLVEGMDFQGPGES
Technique: protein-binding microarray
Form: double-stranded DNA, one strand shown
Matrix: in vitro
Concentration: 2540 nM top
Notes: 60-bp whole probe
With: salmon DNA 0.4 mg/ml
Baseline: random background probes
Reading: higher = stronger binding
Quantity: fitted relative affinity
Constant ends, left off below: GCCTAGCAC … GTCTTGATTCGCTTGACGCTGCTG
GACGGACTGGACACTGGGGCCGTGCTA: -0.824 z-score
CATTTTATGGTATTTTTTTCGTGCTAG: 2.4 z-score
TTAGGTCTCCTTAACCTTTAGTGCTAG: 0.764 z-score
TTAGCTATCGACACTGGGTTAGTGCTA: -0.524 z-score
TCATTTTTTTTTGTATTACTGTGCTAG: 1.16 z-score
TTAGAACTGGGGACTGGATTGGTGCTA: -0.809 z-score
GACGGTTTGGGTTCCGGGACGTGCTAG: 0.661 z-score
TCAACTTTCTTTAACATACTGTGCTAG: 1.26 z-score
TTAGGACTGGGTATCGTTTAGTGCTAG: 0.0911 z-score
TTATATTTCGGGTATCGATTAGTGCTA: 1.24 z-score
TTAGATCTCAGGTTCGATTAGTGCTAG: 0.365 z-score
GGCGATCTCAGTATCGAGACGTGCTAG: 0.48 z-score
TCATGTTTCTTCTGCTGACTGTGCTAG: 0.581 z-score
CTTTTATTTTTTTTATTTATGTGCTAG: 4.37 z-score
ATTGATAGTTTCACAATGCCGTGCTAG: 3.92 z-score
TTAGGTTGCCTTATCCTTTAGTGCTAG: 4.4 z-score
TCAAGTCCCTATCTCCTACTGTGCTAG: 0.971 z-score
ATAGGACTGGGGTTTCGGTTAGTGCTA: 2.61 z-score
TTAGGACTGGACTTCCGGTTAGTGCTA: -0.409 z-score
GATGGTCTCCTTTTCCTGACGTGCTAG: 4.75 z-score
TTAGGACTGCATCTCCTTTAGTGCTAG: -0.175 z-score
